# Results of several laboratories.
# Each line is one published result; not all experiments were run side by side. “And” joins repeats or separate records; there may be more than shown. ± marks the error that the study gave.
SMILES,test,test system,setting,plasma concentration
C[C@H](CCC(=O)O)[C@H]1CC[C@H]2[C@@H]3[C@H](O)C[C@@H]4C[C@H](O)CC[C@]4(C)[C@H]3C[C@H](O)[C@]12C,,"healthy human volunteers, plasma","dose not given, 0 h, control phase, probe drugs alone",77.2 ± 41.7 nM
CC1(C)CCC(CN2CCN(c3ccc(C(=O)NS(=O)(=O)c4ccc(NCC5CCOCC5)c([N+](=O)[O-])c4)c(Oc4cnc5[nH]ccc5c4)c3)CC2)=C(c2ccc(Cl)cc2)C1,UPLC-MS/MS,"human patients, responders","oral, dose not given, 6 h post-dose, steady state, median",2060 ng/mL
Cn1c(=O)[nH]c2ncn(C)c2c1=O,,"human, both sexes, plasma",mean,14300 nM
CC(C)CCC[C@@H](C)[C@H]1CC[C@H]2[C@@H]3C(O)CC4=CC(=O)CC[C@]4(C)[C@H]3CC[C@]12C (stereo partly drawn),,"healthy human volunteers, plasma","oral, dose not given, 0 h, control phase, probe drugs alone",90.2 ± 18.2 nM
O=C(O)c1cccc(O)c1O,,"human, plasma","dose not given, mean",not detected
C[C@H](CCC(=O)NCC(=O)O)[C@H]1CC[C@H]2[C@@H]3CC[C@@H]4C[C@H](OS(=O)(=O)O)CC[C@]4(C)[C@H]3CC[C@]12C,,"healthy human volunteers, plasma","dose not given, 0 h, control phase, probe drugs alone",687 ± 229 nM
O=C(Nc1cnccc1Cl)N1CCN(Cc2ccc3c(c2)OC(F)(F)O3)CC1,,"human, plasma","2.5 mg once daily, 24 h post dose day 7",1.44 ng/mL
CCCN(CCC)S(=O)(=O)c1ccc(C(=O)O)cc1,,"healthy male humans, plasma","oral, dose not given, 3 h, 1 h before cocktail",358000 nM
N#Cc1ccc(C(c2ccc(C#N)cc2)n2cncn2)cc1,,"human patients, plasma","oral, 15 mg daily, day of surgery",526 ± 103 ng/mL
CN1CCN(c2ccc(OC(F)(F)F)c(Nc3ncc4c(n3)-c3c(c(C(N)=O)nn3CCO)CC4)c2)CC1,LC-MS/MS,"human, plasma","oral, 12 mg/m2, 72 h post-dose",33.2 ng/mL and 2.9 ng/mL and 0.789 ng/mL and 3.84 ng/mL and 5.4 ng/mL and 3.18 ng/mL
C[C@H](CCC(=O)O[C@@H]1O[C@H](C(=O)O)[C@@H](O)[C@H](O)[C@H]1O)[C@H]1CC[C@H]2[C@@H]3[C@H](O)C[C@@H]4C[C@H](O)CC[C@]4(C)[C@H]3CC[C@]12C,,"healthy human volunteers, plasma","dose not given, 0 h, baseline phase, no drug",20.1 ± 2.4 nM
COc1cc2c(cc1OC)CN(CCc1ccc(NC(=O)c3cc(OC)c(OC)cc3NC(=O)c3cnc4ccccc4c3)cc1)CC2,,"human, plasma","intravenous infusion, 5.9 mg/kg, 123 min",4110 nM and 3760 nM and 2830 nM
